Experimental data from different studies.
Compare with care: the assays were run in different laboratories. Values joined by “and” are separate records of one study, mostly repeats; a detail may differ. Numbers after ± are the reported error.

SMILES | target or system | assay | system | setting | quantity | result
COc1cc2c(NC3CCN(C(C)C)CC3)nc(C3CCCCC3)nc2cc1OCCCN1CCCC1 | HBL-1 | – | – | 1 µM, 120 h | viability | 113%
Nc1ccccc1C(=O)NCCCCNc1ccnc2ccccc12 | Chromobacterium violaceum | violacein production | ATCC 31532 | 400 µM, quorum sensing reporter | inhibition | 34.9%
O=C(Nc1ccc(Oc2ccc(Cl)cc2)c(Cl)c1)c1cc(I)cc(I)c1O | Trichomonas gallinae | CCK-8 | – | 20 µM, 24 h | inhibition | 55.2%
Cc1cc(OC(C)C)ccc1C(=O)C(C)(C)NC(=O)c1sccc1C | Botrytis cinerea | conidial germination | B05.10 | 3 µg/mL | inhibition | 94 ± 6%
O=C(CC1NCCCC1O)Cn1cnc2cc(Br)c(Cl)cc2c1=O (stereo not drawn) | Trichomonas gallinae | CCK-8 | – | 20 µM, 24 h | inhibition | 94%
COC[C@H]1O[C@@H]2O[C@@H]3[C@@H](OC)[C@@H](OC)[C@@H](O[C@@H]4[C@@H](OC)[C@@H](OC)[C@@H](O[C@@H]5[C@@H](OC)[C@@H](OC)[C@@H](O[C@@H]6[C@@H](OC)[C@@H](OC)[C@@H](O[C@@H]7[C@@H](OC)[C@@H](OC)[C@@H](O[C@@H]1[C@@H](OC)[C@H]2OC)O[C@@H]7COC)O[C@@H]6COC)O[C@@H]5COC)O[C@@H]4COC)O[C@@H]3COC | Escherichia coli | LuxR reporter, antagonist | DH5α sensor strain | 1 µM, with: OHHL 200 nM | inhibition | -3 ± 2%
CN(C)[C@@H]1C(O)=C(C(N)=O)C(=O)[C@@]2(O)C(O)=C3C(=O)c4c(O)ccc(Cl)c4[C@@](C)(O)[C@H]3C[C@@H]12 | Trichomonas gallinae | CCK-8 | – | 20 µM, 24 h | inhibition | 50.6%
Nc1ccn([C@@H]2O[C@H](CO)[C@@H](O)C2(F)F)c(=O)n1 | HBL-1 | – | – | 1 µM, 120 h | viability | 8.92%
Nc1ccc(Br)cc1C(=O)NCCCCNc1ccnc2cc(Cl)ccc12 | Chromobacterium violaceum | violacein production | ATCC 31532 | 40 µM, 2% DMSO | inhibition | 44%
CCc1nn(C)c2nc(-c3ccc(C(=O)O)cc3)nc(NCc3ccc(F)cc3)c12 | Cryptosporidium parvum | parasite growth, immunofluorescence imaging | HCT-8, Iowa | 2 µM | inhibition | 76.2% and 72.4%
O=C(Nc1cccc(C2=NCCN2)c1)Nc1cccc(C2=NCCN2)c1 | Theileria equi | parasite growth, flow cytometry | horse erythrocytes, USDA Florida strain | 0.01075 µM, 72 h | inhibition | 18.8%
Nc1cc(Cl)ccc1C(=O)NCCCCNc1ccnc2cc(Cl)ccc12 | Chromobacterium violaceum | violacein production | ATCC 31532 | 10 µM, quorum sensing reporter | inhibition | 21.2%

Some of these lines once more:
SMILES | target or system | assay | system | setting | quantity | result
Nc1cc(Cl)ccc1C(=O)NCCCCNc1ccnc2cc(Cl)ccc12 | Chromobacterium violaceum | violacein production | ATCC 31532 | 10 µM, quorum sensing reporter | inhibition | 21.2%
